Experimental data pooled from the literature.
A part holds a random share of what one study measured. Substitutions count along the parent as printed.

Sample 1 — method: Spec-seq; form: double-stranded DNA, one strand shown; matrix: in vitro; concentration: not given; setting: whole probe, mean of replicates; relative to: not given; reading: lower = stronger binding; endpoint: relative binding energy
Target: POU domain, class 5, transcription factor 1, POU domain (Pou5f1, Mus musculus, UniProt P20263, residues 131-289)
Sequence of UniProt P20263 (131-289, looked up): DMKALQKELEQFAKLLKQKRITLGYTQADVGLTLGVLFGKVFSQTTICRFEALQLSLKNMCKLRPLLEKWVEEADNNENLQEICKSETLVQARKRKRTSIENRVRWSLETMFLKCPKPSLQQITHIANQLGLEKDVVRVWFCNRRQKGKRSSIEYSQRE
Constant ends, left off below: GAGTCGTCTCGTCAGCAC … ATCCGTAGAGCACTCAGGTC
ATCCTT: 0.578 ln ratio
ATAGTG: 0.54 ln ratio
GTAATA: 0.121 ln ratio
GCACTA: 0.336 ln ratio
CCGTTA: 0.637 ln ratio
TTGGTA: -0.334 ln ratio
ATGAGG: 0.682 ln ratio
TGTATA: -0.103 ln ratio

Sample 2 — target: inorganic phosphate, free oxyanion; method: microfluidic competitive inhibition; matrix: in vitro, cell-free expressed; concentration: not given; reading: lower = stronger binding; endpoint: phosphate dissociation constant
Setting: derived from inhibition constants, unchanged parent 615000 nM
Starting sequence: PafA, mature enzyme, eGFP fusion (Elizabethkingia meningoseptica, UniProt Q9KJX5); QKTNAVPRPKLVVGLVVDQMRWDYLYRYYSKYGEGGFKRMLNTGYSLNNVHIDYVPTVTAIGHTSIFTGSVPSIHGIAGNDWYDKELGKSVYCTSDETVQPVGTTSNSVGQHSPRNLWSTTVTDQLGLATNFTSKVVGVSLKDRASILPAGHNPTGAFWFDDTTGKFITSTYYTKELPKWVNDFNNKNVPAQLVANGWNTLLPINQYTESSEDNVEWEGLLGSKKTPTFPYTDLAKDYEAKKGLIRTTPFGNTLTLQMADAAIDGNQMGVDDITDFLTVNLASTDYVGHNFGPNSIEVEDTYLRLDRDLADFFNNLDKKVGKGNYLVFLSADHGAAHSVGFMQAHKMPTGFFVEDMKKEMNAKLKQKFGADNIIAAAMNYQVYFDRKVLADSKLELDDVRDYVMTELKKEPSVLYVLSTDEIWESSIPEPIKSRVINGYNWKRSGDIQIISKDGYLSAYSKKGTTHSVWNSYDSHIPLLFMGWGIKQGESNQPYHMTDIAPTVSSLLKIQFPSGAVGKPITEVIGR
F511V: 576 µM
A335V: 529 µM
P56V: 254 µM
M404G: 448 µM
L417G: 625 µM
H337V: 476 µM

Sample 3 — read-out: binding; method: phage display NGS; form: peptide; setting: panning round 2; relative to: input library; endpoint: minimum log2 enrichment ratio
Target: UDP-N-acetylglucosamine--peptide N-acetylglucosaminyltransferase 110 kDa subunit (OGT, Homo sapiens, UniProt O15294)
Sequence of UniProt O15294 (whole entry, looked up): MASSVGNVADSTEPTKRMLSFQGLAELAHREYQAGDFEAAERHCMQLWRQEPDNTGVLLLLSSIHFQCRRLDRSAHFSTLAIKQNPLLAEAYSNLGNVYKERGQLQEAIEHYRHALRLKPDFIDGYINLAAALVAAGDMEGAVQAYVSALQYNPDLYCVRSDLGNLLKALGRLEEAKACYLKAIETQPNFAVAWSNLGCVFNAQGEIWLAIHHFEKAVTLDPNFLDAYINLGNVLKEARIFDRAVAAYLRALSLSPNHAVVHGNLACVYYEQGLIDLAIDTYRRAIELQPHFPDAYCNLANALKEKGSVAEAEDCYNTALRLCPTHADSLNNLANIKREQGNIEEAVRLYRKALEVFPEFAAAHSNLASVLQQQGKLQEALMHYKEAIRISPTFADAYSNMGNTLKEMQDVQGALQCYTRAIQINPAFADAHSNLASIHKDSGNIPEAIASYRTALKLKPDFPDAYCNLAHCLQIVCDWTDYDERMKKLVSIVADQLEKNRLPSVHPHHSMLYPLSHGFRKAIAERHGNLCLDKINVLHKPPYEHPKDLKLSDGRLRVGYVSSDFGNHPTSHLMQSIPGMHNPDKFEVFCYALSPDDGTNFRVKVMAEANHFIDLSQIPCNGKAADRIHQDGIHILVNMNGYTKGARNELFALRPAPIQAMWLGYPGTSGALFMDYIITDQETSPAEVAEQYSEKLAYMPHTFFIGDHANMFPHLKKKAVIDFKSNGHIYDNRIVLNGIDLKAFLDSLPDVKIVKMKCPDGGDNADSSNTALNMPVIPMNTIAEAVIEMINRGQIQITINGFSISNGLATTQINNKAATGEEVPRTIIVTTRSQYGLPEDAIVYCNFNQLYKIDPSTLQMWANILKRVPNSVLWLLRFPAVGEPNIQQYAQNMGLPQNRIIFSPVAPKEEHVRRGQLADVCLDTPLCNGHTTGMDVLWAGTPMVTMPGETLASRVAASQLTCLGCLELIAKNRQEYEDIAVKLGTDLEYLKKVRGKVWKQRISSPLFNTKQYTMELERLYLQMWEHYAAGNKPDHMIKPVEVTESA
QEHQYYRPKYLIEIY: 2.29
SPHMNNHHHAVMGEH: 2.99
HVPEGHHYLGHVHFL: 2.16
TTHYLPVYQIELKNA: 3.32
QDTTFAPFYQIIAPP: 3.25

Sample 4 — target: CCNB1, cyclin fold, Cln2 fusion (human); method: yeast growth competition, sequencing; matrix: yeast; setting: strong parent motif; relative to: not given; reading: higher = stronger binding; endpoint: normalised enrichment score
Starting sequence: viral docking peptide; YKVKRRLVFGADD; partner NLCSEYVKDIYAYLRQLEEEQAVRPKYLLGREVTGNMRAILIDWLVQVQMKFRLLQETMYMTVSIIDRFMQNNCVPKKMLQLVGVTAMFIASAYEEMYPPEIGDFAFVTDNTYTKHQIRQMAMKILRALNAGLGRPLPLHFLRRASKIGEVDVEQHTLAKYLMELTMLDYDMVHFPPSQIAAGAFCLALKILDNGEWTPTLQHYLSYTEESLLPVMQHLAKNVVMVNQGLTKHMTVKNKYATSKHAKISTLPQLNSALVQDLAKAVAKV
YGVKRRLVFGADD [K2G]: 4.75
YKVKRRLVVGADD [F9V]: 0.648
YKVRRRLVFGADD [K4R]: 4.71
YKVKRRLVKGADD [F9K]: 0.126
YKVKRTLVFGADD [R6T]: 0.898
YKVKRRLVFGYDD [A11Y]: 3.56
YKVKRRLVFFADD [G10F]: 2.45
YKVKRRCVFGADD [L7C]: 0.0737
YKVKARAVFGADD [R5A L7A]: 0.629
YKVKRRLIFGADD [V8I]: 4.01
YKVKRRLQFGADD [V8Q]: 3.14
YKVKRRLAFGADD [V8A]: 1.78
YKVKRRLVDGADD [F9D]: 0.594
YKVKRRLVFRADD [G10R]: 2.53
YKVKRKLVFGADD [R6K]: 4.14
YKVKRRNVFGADD [L7N]: 0.674
YKFKRRLVFGADD [V3F]: 1.05
YCVKRRLVFGADD [K2C]: 4.54
YKVMRRLVFGADD [K4M]: 1.43
YKVKRRLWFGADD [V8W]: 3.04
YKVKRRLVFGPDD [A11P]: 4.6
YAVKRRLVFGADD [K2A]: 3.82
YKVKRRLVFGAAD [D12A]: 2.2
YKVERRLVFGADD [K4E]: 4.23
YLVKRRLVFGADD [K2L]: 3.78

Sample 5 — method: DHFR PCA, deep sequencing; matrix: yeast; added: (+)-ABA 2500 µM; relative to: wild-type fitted maximum; reading: higher = stronger binding; endpoint: relative binding score
Target: ABI1, truncated, D143A, DHFR fusion (Arabidopsis thaliana)
Setting: methotrexate growth selection, single substitutions
Starting sequence: PYL1, truncated, DHFR fusion (Arabidopsis thaliana); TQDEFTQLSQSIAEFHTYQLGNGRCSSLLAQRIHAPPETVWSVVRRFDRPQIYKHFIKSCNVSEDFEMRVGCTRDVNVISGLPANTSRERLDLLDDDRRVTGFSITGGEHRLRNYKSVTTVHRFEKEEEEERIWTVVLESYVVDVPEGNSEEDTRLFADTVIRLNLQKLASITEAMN
A30R: 98.3%
T73M: 92.5%
R111S: 80.1%
E67H: 98.1%
Q167C: 91.9%
F5Q: 108%
L29C: 93.3%
L164M: 95.7%

Other studies, line by line
PhoQ, residues 284 288 289 292 302 303 TASMAF  fold induction (PhoP, residues 12 14 15 18 19 NYFTV (Escherichia coli, UniProt P23836); Sort-seq, refers to: YFP reporter; E. coli; PhoQ-PhoP variant library, added: 10 µM Mg2+; relative to: high Mg2+ state, higher = stronger signaling): 8.55
